Results collected from several papers.
Every numbered part comes from another study and shows a few of its results, in no order. Positions count from the first letter of the parent shown.

Series 1
Target: Interferon regulatory factor 3, full length, phosphomimetic (IRF3, Homo sapiens, UniProt Q14653, residues 1-427, S386D/S396D/S398D/S402D/T404D/S405D)
Technique: protein-binding microarray
Molecule type: double-stranded DNA, one strand shown
Medium: in vitro
Concentration: 2540 nM top
Setting: 60-bp whole probe
Together with: salmon DNA 0.4 mg/ml
Relative to: random background probes
Direction: higher = stronger binding
Constant ends, left off below: GCCTAGCAC … GTCTTGATTCGCTTGACGCTGCTG
Target sequence (chain): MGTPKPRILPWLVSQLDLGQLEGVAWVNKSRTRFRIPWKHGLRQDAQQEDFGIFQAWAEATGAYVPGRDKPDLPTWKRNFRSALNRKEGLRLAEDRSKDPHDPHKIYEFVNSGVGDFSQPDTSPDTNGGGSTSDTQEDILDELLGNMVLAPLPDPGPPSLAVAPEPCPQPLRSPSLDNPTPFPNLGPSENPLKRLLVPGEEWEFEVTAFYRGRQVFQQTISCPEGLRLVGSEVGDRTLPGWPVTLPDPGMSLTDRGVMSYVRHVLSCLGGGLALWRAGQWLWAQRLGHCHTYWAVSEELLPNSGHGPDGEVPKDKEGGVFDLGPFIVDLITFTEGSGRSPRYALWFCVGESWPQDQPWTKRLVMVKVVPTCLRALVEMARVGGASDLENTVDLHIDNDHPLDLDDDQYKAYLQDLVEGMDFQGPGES
Sequence	fitted relative affinity [z-score]
GAAGGTATCCTTATCCTGACGTGCTAG	5.03
TCAGATATCAGTATCGATTAGTGCTAG	2.29
GACGGTCTAGGACTGGGGACGTGCTAG	-0.547
TTAGGTATCAGTATCGGTTAGTGCTAG	4.64
TCACGTCTGGGTGTTTTACTGTGCTAG	-0.531
GACGGTCTCGGTACCGGGACGTGCTAG	0.976
TCAACTCTGTCCCTCTGACTGTGCTAG	0.0123
TTAGGACTGCTACTGCATTAGTGCTAG	-0.513
TCAAAAATCAAGTCTGGGACTGTGCTA	-0.691
GACGGTTCCGGTTTCGGGAGGTGCTAG	6.13
AACGATATCAGTCTCGAGACGTGCTAG	1.13
GACGGTATCCTTCTCCTGAAGTGCTAG	6.73
TTCATTTTTTTTTTCATCATGTGCTAG	1.23

Series 2
Target: CCNE1, cyclin fold, Cln2 fusion (human)
Technique: yeast growth competition, sequencing
Medium: yeast
Setting: strong parent motif
Relative to: not given
Direction: higher = stronger binding
Starting sequence: BRCA2 docking peptide (human); PSIKRNLLNEFDR
Substitution	normalised enrichment score
I3K	1.12
N9A	3.2
F11T	0.72
N6R	0.437
P1S	1.68
D12L	0.541
R13D	2.43
F11W	-0.0197
I3L	1.02
N9P	1.9
L8P	0.011
N9H	1.88
L8M	2.28
D12E	1.95
F11S	-0.858
L8Y	-0.0165
L7W	0.482
K4W	-0.656

Series 3
Target: Sal-like protein 4, full length isoform B (SALL4, Homo sapiens, UniProt Q9UJQ4-2, residues 1-616)
Technique: universal PBM
Molecule type: double-stranded DNA, one strand shown
Medium: in vitro
Concentration: not given
Setting: 8-mer, flanks averaged, mean of replicates
Direction: higher = stronger binding
Residues (chain): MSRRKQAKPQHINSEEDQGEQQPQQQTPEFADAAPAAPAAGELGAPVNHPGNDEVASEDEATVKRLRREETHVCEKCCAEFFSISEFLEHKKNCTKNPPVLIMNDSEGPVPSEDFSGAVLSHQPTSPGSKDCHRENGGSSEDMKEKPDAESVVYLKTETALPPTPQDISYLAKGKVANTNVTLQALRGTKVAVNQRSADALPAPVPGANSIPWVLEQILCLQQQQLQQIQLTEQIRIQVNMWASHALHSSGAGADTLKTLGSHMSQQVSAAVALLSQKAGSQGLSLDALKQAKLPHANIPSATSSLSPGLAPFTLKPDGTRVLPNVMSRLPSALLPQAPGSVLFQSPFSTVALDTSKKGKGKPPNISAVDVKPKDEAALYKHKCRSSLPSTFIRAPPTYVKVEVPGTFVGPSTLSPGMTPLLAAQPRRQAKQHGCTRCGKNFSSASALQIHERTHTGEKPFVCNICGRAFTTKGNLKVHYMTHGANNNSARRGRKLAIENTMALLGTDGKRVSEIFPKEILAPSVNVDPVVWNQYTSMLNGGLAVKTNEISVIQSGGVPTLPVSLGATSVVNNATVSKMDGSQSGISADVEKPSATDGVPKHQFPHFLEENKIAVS
Sequence	E-score
GCATCGAA	-0.0196
CCCGGGGC	-0.43
CGTGAGCC	-0.222
CATGTACC	-0.189
GCAGATGA	-0.128
GGAAAAAA	0.29
AACAGAAA	0.228
ACCCCACA	-0.0458
AGGTTACT	0.0361
AGTACTAG	0.107
ACTAATTC	0.107
AGGGGCTG	-0.276
ATGCGCTA	0.0944
CGGGGATC	-0.388
AAGCACAC	-0.0923
AACCATGC	0.00038
AGGGTGGA	-0.1
GCTCCCGA	-0.223
CGCGCTCC	-0.281

Series 4
Target: Histone acetyltransferase KAT6A, winged helix 2, GST fusion (KAT6A, Homo sapiens, UniProt Q92794, residues 85-181)
Technique: protein binding microarray
Molecule type: double-stranded DNA, one strand shown
Medium: in vitro
Concentration: not given
Setting: 8-mer, flanks averaged, mean of 2 arrays, mostly near background
Relative to: not given
Direction: higher = stronger binding
Construct (chain): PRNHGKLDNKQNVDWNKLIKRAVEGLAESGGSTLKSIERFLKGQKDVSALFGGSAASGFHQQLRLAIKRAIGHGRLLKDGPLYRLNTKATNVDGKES
Sequence	E-score
AGGAGATC	0.0153
CAGCCATC	-0.0615
CCTATCCA	-0.129
ATCAGGCC	0.00509
CATACAAC	-0.0902
ACCGTAAA	-0.15
AAACGTGC	-0.211
CCGCAAGC	-0.0742
GCGTTCGA	0.107
GAAGACAA	0.123
CATAATGC	-0.145
ACCAAAAT	0.0505
AGTGCTAG	-0.11
GATAAATA	-0.0372
CACCTGCG	0.161
AAAGAAGG	-0.0362
ACTTAGCA	-0.039
ATCATGTA	-0.0934
GTACTCAC	0.0365
AGAGTTCC	-0.134
CGATGGTC	-0.0811
GATCCCCC	-0.19
ACTTAAAC	-0.00653
CAGATGCA	-0.186
ACGTCAAA	-0.115

Series 5
Target: ABI1, truncated, D143A, DHFR fusion (Arabidopsis thaliana)
Technique: DHFR PCA, deep sequencing
Medium: yeast
Setting: methotrexate growth selection, single substitutions
Together with: (+)-ABA 0.0091 µM
Relative to: wild-type fitted maximum
Direction: higher = stronger binding
Starting sequence: PYL1, truncated, DHFR fusion (Arabidopsis thaliana); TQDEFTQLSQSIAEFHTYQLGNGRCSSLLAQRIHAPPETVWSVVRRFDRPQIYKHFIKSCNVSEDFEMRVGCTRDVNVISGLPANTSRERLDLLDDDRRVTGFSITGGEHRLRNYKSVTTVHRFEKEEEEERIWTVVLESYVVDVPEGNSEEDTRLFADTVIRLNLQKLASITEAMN
Substitution	relative binding score
R111I	9.35%
A175G	31.6%
T119P	-7.56%
T106K	0.942%
D65N	35.3%
D159I	-5.27%
T17M	5.56%
P36Q	9.34%
I162P	-3.31%
N165C	2.9%
R98A	5.09%
S104V	-4.43%
F124H	-7.3%
L28M	14.2%
A84M	59.8%

Series 6
Target: RNA binding protein fox-1 homolog 2, RRM domain, GST-SBP tag (RBFOX2, Homo sapiens, UniProt O43251-10, residues 100-194)
Technique: RNA Bind-n-Seq
Molecule type: RNA
Medium: in vitro
Concentration: 365 nM
Setting: natural RNA segment, single round, ends assumed
Relative to: no-protein control
Direction: higher = stronger binding
Constant ends, left off below: GGGAGUUCUACAGUCCGACGAUC … UGGAAUUCUCGGGUGCCAA
Construct (chain): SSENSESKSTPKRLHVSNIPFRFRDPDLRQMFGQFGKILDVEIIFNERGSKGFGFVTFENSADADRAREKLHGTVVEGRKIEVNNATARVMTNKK
Sequence	RBNS enrichment (R)
UUCCUUCUGCCCAUCUUCCAUGUUGUAAAGGAACAGCCCCAGUGCACUGGGGGAGGGGAGGGAGUGAGGGGCAGUGGUGCCCUUCCUGCAGAAGAGACAUGCAGCAGUAG	0.291
UAGGAUACUUUUAUAUGAUGGGUGCUUUGAGUGUGAAUGCAGCAGGCUCUAUCUCAGAGGUGCUGCUCUUGCAGGUGACCUGGUUGCAUAGCUAGGAUUAGUAAUUUGUA	1.05
GGGGCUGGCCCUGCCCUCCCCCACGGCCGUCCCUGACUUCCCAGCUGGCAGCGCCUCCCGCCGCCUCGGGCCGCCUCCUCCAGACUCGAGAGGGCUGAGCCCCUCCUCUC	0.217
UCAUGAGAAGUUUGAUUCAGUAACUUGUGAUGGAGGAUUCUUUGGUAUCUUACUGUUUGGUUAAGGCACUAAUUUUACUUACCUAUUAGAUUUUGAAAGUAUCUGAGAUA	0.588
UGCUAAAAACUUUUGGCAACAAAAUUAAACUAAAACCAAAGUCAACAUGUGAAGUGUUUAUCAUAAGAUCCUCAGGAGUCAGUAUUGCAUGAUGCUCCCCUUAAUUGUCA	32.2
CGAUGCUGACCUCACCUGGUCCUCCGCCUACUGUCCCUCUCAGUGCCUUCUCUCAGCUCCCAGGCCAACAGUAGCCAAACCCCUAGAGACAGUGAUGCCUGCCCGCACCC	0.718
CGCCAUCAAACUUAUGGGCAGGGAUAACAGUGUGCCUGGUUAAUAUUAAUAUUCCCAUUUUAUUAAUAAUAUUUAUGUUGGGUCAAGUGUUAGGUCAAUAACACUGUAUU	0.462
UUUCUACUAACUCCUUCCUUAAAGGCCAUAUCACUCCAUUUGCAUUAUUUGUGCAAAUGCCAGGGUUGGUUUUUAUUUUUAUUUUUGCUAUUUACCUAAAAAAAGAAAAU	0.828
UUUUUUACACAAUCAUUAAUGAGAUUUGUCUUCAGCCACCAGUGUUGGCCUUGAAGCAGAGGGCACAGCCCUUGGUGUUUGUAAAAUAAGUAUGAAUACACAGUGUGGCA	0.474
GUUUUGAGUAAACUCAGUAUGCAUGUGUGAAUGCUGAAUCACAGGAAUGGUGUUGAGGCUACCAAGAAGAAAUCCAUGCAGCCACUUUGGGUUUUGUUAUAGGCAUCAGU	25.6
UUUCUUAAGCGACUACAUCAUAUUUUAAAAUAUUAAUCCUUCAAUAAAGUGGCAAGUAUAAGAAAAUGGUAUAAAUAUAUAGACAAUCAUCAGAUAUUUAUUAAUUUAAU	0.459
CGGCCCCAUUUACUGACCCCGCCCCCUUUUCGAGGUUAUGCUCACCUGGUCAGCUCCUCACGUAAUUGGGGGUGGAGGGAAAGCAUGGUGGUGCCCUGGGCCGUCCCUGU	0.247

A few entries again (series 6):
Sequence	RBNS enrichment (R)
UUCCUUCUGCCCAUCUUCCAUGUUGUAAAGGAACAGCCCCAGUGCACUGGGGGAGGGGAGGGAGUGAGGGGCAGUGGUGCCCUUCCUGCAGAAGAGACAUGCAGCAGUAG	0.291
UAGGAUACUUUUAUAUGAUGGGUGCUUUGAGUGUGAAUGCAGCAGGCUCUAUCUCAGAGGUGCUGCUCUUGCAGGUGACCUGGUUGCAUAGCUAGGAUUAGUAAUUUGUA	1.05
GGGGCUGGCCCUGCCCUCCCCCACGGCCGUCCCUGACUUCCCAGCUGGCAGCGCCUCCCGCCGCCUCGGGCCGCCUCCUCCAGACUCGAGAGGGCUGAGCCCCUCCUCUC	0.217
GUUUUGAGUAAACUCAGUAUGCAUGUGUGAAUGCUGAAUCACAGGAAUGGUGUUGAGGCUACCAAGAAGAAAUCCAUGCAGCCACUUUGGGUUUUGUUAUAGGCAUCAGU	25.6
UUUCUACUAACUCCUUCCUUAAAGGCCAUAUCACUCCAUUUGCAUUAUUUGUGCAAAUGCCAGGGUUGGUUUUUAUUUUUAUUUUUGCUAUUUACCUAAAAAAAGAAAAU	0.828
CGGCCCCAUUUACUGACCCCGCCCCCUUUUCGAGGUUAUGCUCACCUGGUCAGCUCCUCACGUAAUUGGGGGUGGAGGGAAAGCAUGGUGGUGCCCUGGGCCGUCCCUGU	0.247
UCAUGAGAAGUUUGAUUCAGUAACUUGUGAUGGAGGAUUCUUUGGUAUCUUACUGUUUGGUUAAGGCACUAAUUUUACUUACCUAUUAGAUUUUGAAAGUAUCUGAGAUA	0.588
CGAUGCUGACCUCACCUGGUCCUCCGCCUACUGUCCCUCUCAGUGCCUUCUCUCAGCUCCCAGGCCAACAGUAGCCAAACCCCUAGAGACAGUGAUGCCUGCCCGCACCC	0.718
